Results collected from several papers.
Each numbered part is a random draw from the data of one study; scales do not carry over between parts. Values joined by “and” are separate records of one study, mostly repeats; a detail may differ.
UniProt P00519, sequence (whole entry, unmodified, looked up): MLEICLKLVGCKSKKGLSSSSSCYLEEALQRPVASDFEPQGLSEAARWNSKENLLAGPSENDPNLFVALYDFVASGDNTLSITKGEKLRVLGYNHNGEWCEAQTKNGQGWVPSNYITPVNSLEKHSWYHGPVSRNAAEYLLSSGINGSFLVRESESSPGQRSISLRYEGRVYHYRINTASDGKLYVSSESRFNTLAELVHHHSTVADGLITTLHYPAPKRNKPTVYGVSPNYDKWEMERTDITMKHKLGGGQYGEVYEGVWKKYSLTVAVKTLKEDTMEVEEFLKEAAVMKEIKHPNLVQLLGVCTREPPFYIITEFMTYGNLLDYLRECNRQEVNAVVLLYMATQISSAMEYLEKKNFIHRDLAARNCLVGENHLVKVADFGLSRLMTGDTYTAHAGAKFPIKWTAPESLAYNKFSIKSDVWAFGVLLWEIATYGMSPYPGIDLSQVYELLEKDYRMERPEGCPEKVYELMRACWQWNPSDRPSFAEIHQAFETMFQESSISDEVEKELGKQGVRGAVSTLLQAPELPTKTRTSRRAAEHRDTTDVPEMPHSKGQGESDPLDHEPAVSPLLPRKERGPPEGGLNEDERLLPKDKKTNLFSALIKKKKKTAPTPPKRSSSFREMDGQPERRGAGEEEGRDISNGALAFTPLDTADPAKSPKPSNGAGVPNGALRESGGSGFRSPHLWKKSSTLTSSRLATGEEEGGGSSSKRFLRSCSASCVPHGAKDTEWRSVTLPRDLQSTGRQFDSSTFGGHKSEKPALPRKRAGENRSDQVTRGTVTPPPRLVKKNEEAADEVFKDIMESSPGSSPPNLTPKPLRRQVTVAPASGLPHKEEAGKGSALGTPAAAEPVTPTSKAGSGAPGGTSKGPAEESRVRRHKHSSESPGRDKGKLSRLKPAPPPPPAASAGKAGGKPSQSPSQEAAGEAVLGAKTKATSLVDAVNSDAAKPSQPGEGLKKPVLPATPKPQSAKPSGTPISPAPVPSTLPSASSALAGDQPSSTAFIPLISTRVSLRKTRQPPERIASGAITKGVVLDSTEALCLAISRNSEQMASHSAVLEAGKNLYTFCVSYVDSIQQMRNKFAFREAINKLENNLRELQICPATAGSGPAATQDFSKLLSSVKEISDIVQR
UniProt P10721, sequence (whole entry, unmodified, looked up): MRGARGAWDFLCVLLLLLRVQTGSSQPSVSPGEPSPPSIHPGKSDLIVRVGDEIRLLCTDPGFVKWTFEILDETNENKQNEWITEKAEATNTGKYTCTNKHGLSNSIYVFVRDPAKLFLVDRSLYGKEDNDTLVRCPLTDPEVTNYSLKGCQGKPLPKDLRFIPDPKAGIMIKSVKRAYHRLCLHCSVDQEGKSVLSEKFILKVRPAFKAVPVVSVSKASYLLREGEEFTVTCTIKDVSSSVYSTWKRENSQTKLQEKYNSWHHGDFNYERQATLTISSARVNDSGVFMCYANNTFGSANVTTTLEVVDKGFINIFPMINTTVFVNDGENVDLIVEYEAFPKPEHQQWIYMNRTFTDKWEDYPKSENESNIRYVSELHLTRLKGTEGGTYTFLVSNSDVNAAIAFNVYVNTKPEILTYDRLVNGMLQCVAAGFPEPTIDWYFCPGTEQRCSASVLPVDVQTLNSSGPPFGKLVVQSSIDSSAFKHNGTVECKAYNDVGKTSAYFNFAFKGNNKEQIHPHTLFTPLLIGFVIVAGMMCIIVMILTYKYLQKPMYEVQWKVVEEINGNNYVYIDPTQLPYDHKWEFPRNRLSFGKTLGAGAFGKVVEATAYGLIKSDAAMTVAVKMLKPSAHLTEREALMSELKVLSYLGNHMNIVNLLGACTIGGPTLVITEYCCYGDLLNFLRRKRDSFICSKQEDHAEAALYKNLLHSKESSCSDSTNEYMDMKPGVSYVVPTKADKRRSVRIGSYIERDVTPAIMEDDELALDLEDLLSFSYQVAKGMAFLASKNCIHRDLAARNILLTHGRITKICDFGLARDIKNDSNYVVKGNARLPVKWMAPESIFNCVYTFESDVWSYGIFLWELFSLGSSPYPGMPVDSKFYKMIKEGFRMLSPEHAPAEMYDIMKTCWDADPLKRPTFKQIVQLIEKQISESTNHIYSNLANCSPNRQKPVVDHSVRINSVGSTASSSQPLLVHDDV
UniProt P54756, sequence (whole entry, looked up): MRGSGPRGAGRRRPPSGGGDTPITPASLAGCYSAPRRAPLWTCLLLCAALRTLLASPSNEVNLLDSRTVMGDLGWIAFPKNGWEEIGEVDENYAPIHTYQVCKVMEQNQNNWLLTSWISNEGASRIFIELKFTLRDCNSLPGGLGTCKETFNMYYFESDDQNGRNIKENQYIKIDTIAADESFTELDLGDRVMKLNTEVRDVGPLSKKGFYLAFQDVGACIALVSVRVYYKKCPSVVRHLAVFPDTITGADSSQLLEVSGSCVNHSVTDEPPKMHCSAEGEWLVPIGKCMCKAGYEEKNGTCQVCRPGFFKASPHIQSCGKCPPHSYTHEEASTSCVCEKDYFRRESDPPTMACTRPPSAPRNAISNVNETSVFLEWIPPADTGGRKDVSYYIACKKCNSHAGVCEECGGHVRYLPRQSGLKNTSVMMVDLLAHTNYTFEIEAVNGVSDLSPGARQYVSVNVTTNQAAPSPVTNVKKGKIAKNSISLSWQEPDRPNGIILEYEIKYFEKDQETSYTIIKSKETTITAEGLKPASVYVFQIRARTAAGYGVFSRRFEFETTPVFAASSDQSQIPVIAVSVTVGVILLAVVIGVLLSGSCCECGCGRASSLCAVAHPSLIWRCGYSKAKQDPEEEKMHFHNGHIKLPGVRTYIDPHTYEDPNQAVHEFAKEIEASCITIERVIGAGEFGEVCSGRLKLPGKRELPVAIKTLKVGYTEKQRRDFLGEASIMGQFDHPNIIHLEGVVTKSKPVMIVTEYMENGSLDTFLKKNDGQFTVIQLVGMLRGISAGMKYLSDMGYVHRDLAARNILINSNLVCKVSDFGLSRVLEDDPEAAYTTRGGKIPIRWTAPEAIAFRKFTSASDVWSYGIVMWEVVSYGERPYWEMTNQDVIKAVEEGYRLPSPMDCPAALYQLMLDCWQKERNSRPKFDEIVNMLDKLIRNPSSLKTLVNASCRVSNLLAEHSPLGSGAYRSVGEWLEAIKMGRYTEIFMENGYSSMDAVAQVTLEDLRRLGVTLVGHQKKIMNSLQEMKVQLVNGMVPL
UniProt P07948, sequence (whole entry, looked up): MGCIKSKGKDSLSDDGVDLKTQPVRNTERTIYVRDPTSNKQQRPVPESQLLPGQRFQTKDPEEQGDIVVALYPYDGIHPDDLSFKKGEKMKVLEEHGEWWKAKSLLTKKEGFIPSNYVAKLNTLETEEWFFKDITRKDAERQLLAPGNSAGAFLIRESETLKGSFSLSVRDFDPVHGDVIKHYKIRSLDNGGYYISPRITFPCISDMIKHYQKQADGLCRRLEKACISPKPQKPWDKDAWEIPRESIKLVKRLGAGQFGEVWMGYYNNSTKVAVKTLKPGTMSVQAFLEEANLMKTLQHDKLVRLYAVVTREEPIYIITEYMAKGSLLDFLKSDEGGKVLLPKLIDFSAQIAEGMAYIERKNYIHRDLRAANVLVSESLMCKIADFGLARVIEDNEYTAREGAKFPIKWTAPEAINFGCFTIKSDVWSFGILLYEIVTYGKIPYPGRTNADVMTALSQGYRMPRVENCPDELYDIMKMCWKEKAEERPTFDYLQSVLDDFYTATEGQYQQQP
UniProt Q14012, sequence (whole entry, looked up): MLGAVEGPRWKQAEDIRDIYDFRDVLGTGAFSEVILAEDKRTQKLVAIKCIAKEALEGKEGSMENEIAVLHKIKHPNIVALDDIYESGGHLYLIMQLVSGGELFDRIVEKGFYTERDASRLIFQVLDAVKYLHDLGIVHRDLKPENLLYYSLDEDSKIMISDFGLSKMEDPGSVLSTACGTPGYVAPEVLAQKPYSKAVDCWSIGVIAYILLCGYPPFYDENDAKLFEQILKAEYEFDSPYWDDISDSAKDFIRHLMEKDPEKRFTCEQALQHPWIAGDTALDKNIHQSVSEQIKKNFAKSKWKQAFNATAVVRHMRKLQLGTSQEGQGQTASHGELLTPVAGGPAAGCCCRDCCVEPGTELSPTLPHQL
UniProt Q06187, sequence (whole entry, looked up): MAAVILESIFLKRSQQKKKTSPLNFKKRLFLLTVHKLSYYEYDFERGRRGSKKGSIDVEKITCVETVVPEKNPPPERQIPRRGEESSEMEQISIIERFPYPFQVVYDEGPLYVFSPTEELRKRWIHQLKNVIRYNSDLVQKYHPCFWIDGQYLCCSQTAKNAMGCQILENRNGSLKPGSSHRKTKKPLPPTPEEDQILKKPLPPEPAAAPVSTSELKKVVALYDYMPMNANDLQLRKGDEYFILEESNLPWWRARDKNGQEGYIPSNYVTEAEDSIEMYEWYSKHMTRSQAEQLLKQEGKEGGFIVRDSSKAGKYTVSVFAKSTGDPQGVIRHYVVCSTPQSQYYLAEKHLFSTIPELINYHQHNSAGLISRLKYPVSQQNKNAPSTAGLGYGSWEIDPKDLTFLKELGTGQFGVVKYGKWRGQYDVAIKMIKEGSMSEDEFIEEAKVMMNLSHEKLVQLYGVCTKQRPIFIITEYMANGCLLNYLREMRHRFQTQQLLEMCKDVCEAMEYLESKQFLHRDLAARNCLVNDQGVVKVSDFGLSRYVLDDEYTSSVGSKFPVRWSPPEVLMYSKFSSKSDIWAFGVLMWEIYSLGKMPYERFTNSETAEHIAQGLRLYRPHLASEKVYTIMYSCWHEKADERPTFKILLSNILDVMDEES
UniProt Q9HC98, sequence (whole entry, looked up): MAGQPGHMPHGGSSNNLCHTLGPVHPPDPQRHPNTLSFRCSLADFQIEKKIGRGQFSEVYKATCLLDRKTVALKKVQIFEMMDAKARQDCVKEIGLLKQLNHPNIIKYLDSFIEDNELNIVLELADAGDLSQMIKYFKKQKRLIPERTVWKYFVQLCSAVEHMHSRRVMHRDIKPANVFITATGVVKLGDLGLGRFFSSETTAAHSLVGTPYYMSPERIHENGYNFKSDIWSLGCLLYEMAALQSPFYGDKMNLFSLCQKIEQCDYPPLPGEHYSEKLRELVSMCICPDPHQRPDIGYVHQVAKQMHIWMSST

Sample 1
Compound: CN1CCN(c2cnc3c(C4CCN(C(=O)c5ccc(OC(F)(F)F)cc5N)CC4)ncnc3c2)CC1
Read-out: cell-free assay
Technique: competition with immobilised ligand
Tested at: 1 µM
| target | remaining binding |
| --- | --- |
| Leukocyte tyrosine kinase receptor (LTK, Homo sapiens, UniProt P29376) | 49% |
| Receptor-type tyrosine-protein kinase FLT3 (FLT3, Homo sapiens, UniProt P36888, K663Q) | 100% |
| Receptor-type tyrosine-protein kinase FLT3 (FLT3, Homo sapiens, UniProt P36888, D835V) | 90% |
| Phosphatidylinositol 3-kinase catalytic subunit type 3 (PIK3C3, Homo sapiens, UniProt Q8NEB9) | 100% |
| Receptor-type tyrosine-protein kinase FLT3 (FLT3, Homo sapiens, UniProt P36888, D835Y) | 100% |
| Phosphatidylinositol 5-phosphate 4-kinase type-2 beta (PIP4K2B, Homo sapiens, UniProt P78356) | 79% |
| Receptor-type tyrosine-protein kinase FLT3 (FLT3, Homo sapiens, UniProt P36888) | 97% |
| Tyrosine-protein kinase ABL2 (ABL2, Homo sapiens, UniProt P42684) | 100% |
| Serine/threonine-protein kinase Sgk2 (SGK2, Homo sapiens, UniProt Q9HBY8) | 92% |
| cGMP-dependent protein kinase 2 (PRKG2, Homo sapiens, UniProt Q13237) | 77% |
| Mast/stem cell growth factor receptor Kit (KIT, Homo sapiens, UniProt P10721, D816H) | 100% |
| Homeodomain-interacting protein kinase 3 (HIPK3, Homo sapiens, UniProt Q9H422) | 100% |
| Calcium/calmodulin-dependent protein kinase type 1 (CAMK1, Homo sapiens, UniProt Q14012) | 100% |
| Tyrosine-protein kinase ABL1, phosphorylated (ABL1, Homo sapiens, UniProt P00519) | 86% |
| Vascular endothelial growth factor receptor 1 (FLT1, Homo sapiens, UniProt P17948) | 76% |
| Tyrosine-protein kinase Lyn (LYN, Homo sapiens, UniProt P07948) | 75% |
| Epidermal growth factor receptor (EGFR, Homo sapiens, UniProt P00533, del747-752/P753S) | 100% |
| Macrophage colony-stimulating factor 1 receptor, autoinhibited (CSF1R, Homo sapiens, UniProt P07333) | 92% |
| Serine/threonine-protein kinase Nek6 (NEK6, Homo sapiens, UniProt Q9HC98) | 92% |
| Serine/threonine-protein kinase VRK2 (VRK2, Homo sapiens, UniProt Q86Y07) | 100% |
| Serine/threonine-protein kinase WNK4 (WNK4, Homo sapiens, UniProt Q96J92) | 99% |
| Tyrosine-protein kinase JAK3, JH1 (JAK3, Homo sapiens, UniProt P52333) | 100% |
| Insulin receptor-related protein (INSRR, Homo sapiens, UniProt P14616) | 100% |
| Aurora kinase B (AURKB, Homo sapiens, UniProt Q96GD4) | 90% |
| Interleukin-1 receptor-associated kinase 3 (IRAK3, Homo sapiens, UniProt Q9Y616) | 100% |

Sample 2
Structure (SMILES): O=C1NC(=O)/C(=C/c2ccc3c(c2)OC(F)(F)O3)S1
Read-out: enzyme activity
Action: inhibitor
Tested at: 0.5 µM
Relative to: control
| target | remaining activity [%] |
| --- | --- |
| Serine/threonine-protein kinase WNK2 (WNK2, Homo sapiens, UniProt Q9Y3S1) | 113 |
| Casein kinase II subunit alpha (CSNK2A1, Homo sapiens, UniProt P68400) | 22.6 |
| Serine/threonine-protein kinase Chk1 (CHEK1, Homo sapiens, UniProt O14757) | 101 |
| MAP kinase-interacting serine/threonine-protein kinase 2 (MKNK2, Homo sapiens, UniProt Q9HBH9) | 98.3 |
| Mitogen-activated protein kinase kinase kinase 10 (MAP3K10, Homo sapiens, UniProt Q02779) | 91.2 |
| Cyclin-dependent kinase 9, with cyclin T1 (CDK9, Homo sapiens, UniProt P50750) | 98.7 |
| Interleukin-1 receptor-associated kinase 4 (IRAK4, Homo sapiens, UniProt Q9NWZ3) | 99.2 |
| Mitogen-activated protein kinase 12 (MAPK12, Homo sapiens, UniProt P53778) | 92.8 |
| Serine/threonine-protein kinase 38 (STK38, Homo sapiens, UniProt Q15208) | 107 |
| Tyrosine-protein kinase BTK (BTK, Homo sapiens, UniProt Q06187) | 94.3 |
| Leucine-rich repeat serine/threonine-protein kinase 2 (LRRK2, Homo sapiens, UniProt Q5S007) | 103 |
| Mast/stem cell growth factor receptor Kit (KIT, Homo sapiens, UniProt P10721) | 93.4 |
| Mitogen-activated protein kinase 13 (MAPK13, Homo sapiens, UniProt O15264) | 101 |
| Ephrin type-A receptor 5 (EPHA5, Homo sapiens, UniProt P54756) | 100 |
| Protein kinase C iota type (PRKCI, Homo sapiens, UniProt P41743) | 95.9 |
| Casein kinase I isoform alpha (CSNK1A1, Homo sapiens, UniProt P48729) | 88.4 |
| Tyrosine-protein kinase Lyn (LYN, Homo sapiens, UniProt P07948) | 99.9 |
| Protein kinase C delta type (PRKCD, Homo sapiens, UniProt Q05655) | 93.2 |
| RAC-gamma serine/threonine-protein kinase (AKT3, Homo sapiens, UniProt Q9Y243) | 103 |
| Dual specificity mitogen-activated protein kinase kinase 6 (MAP2K6, Homo sapiens, UniProt P52564) | 92.3 |
| Mitogen-activated protein kinase kinase kinase kinase 2 (MAP4K2, Homo sapiens, UniProt Q12851) | 90.7 |
| Serine/threonine-protein kinase Nek4 (NEK4, Homo sapiens, UniProt P51957) | 97.8 |
| Serine/threonine-protein kinase PLK2 (PLK2, Homo sapiens, UniProt Q9NYY3) | 99.7 |

Sample 3
SMILES: CC(C)n1cnc(-c2ccc(F)cc2)c1-c1ncc(C(=O)Nc2ccc(N3CCN(C)CC3)cc2)[nH]1
Technique: phase 2a trial
Host: idiopathic pulmonary fibrosis patients
| setting | patients with arrhythmia [%] |
| --- | --- |
| 60 mg once daily, adverse event grade 3 | 0 |
| dose not given, adverse event grade 4, all dose arms pooled | 0 |
| 60 mg once daily, adverse event grade 4 | 0 |
| dose not given, adverse event grade 5, all dose arms pooled | 0 |
| 30 mg once daily, adverse event grade 1 | 0 |
| 30 mg once daily, adverse event grade 2 | 0 |
| 30 mg once daily, adverse event grade 3 | 0 |
| 60 mg once daily, adverse event grade 2 | 0 |

Sample 4
SMILES: O=C(Nc1ccccc1)Nc1cccc(Oc2ccc3nccn3n2)c1
Tested at: 1 µM
| target | assay | setting | how to read | remaining binding |
| --- | --- | --- | --- | --- |
| SRSF protein kinase 2 (SRPK2, Homo sapiens, UniProt P78362) | competitive binding panel | – | relative to: vehicle | 97% |
| Tyrosine-protein kinase Tec (TEC, Homo sapiens, UniProt P42680) | competitive binding panel | – | relative to: vehicle | 100% |
| Inhibitor of nuclear factor kappa-B kinase subunit beta (IKBKB, Homo sapiens, UniProt O14920) | competitive binding | IKK-beta | – | 100% |
| Tyrosine-protein kinase ABL1 (ABL1, Homo sapiens, UniProt P00519, F317I) | competitive binding, scanMAX | – | – | 100% and 51% |
| Ephrin type-A receptor 5 (EPHA5, Homo sapiens, UniProt P54756) | competitive binding panel | – | relative to: vehicle | 100% |
| Serine/threonine-protein kinase Nek11 (NEK11, Homo sapiens, UniProt Q8NG66) | competitive binding panel | – | relative to: vehicle | 100% |
| Activin receptor type-2B (ACVR2B, Homo sapiens, UniProt Q13705) | competitive binding panel | – | relative to: vehicle | 94% |
| Serine/threonine-protein kinase Sgk1 (SGK1, Homo sapiens, UniProt O00141) | competitive binding | SGK | – | 100% |
| 3-phosphoinositide-dependent protein kinase 1 (PDPK1, Homo sapiens, UniProt O15530) | competitive binding panel | – | relative to: vehicle | 100% |
| Casein kinase I isoform gamma-2 (CSNK1G2, Homo sapiens, UniProt P78368) | competitive binding panel | – | relative to: vehicle | 100% |
| Mitogen-activated protein kinase kinase kinase 7 (MAP3K7, Homo sapiens, UniProt O43318) | competitive binding panel, refers to: TAK1 | – | relative to: vehicle | 100% |
| Serine/threonine-protein kinase SIK1 (SIK1, Homo sapiens, UniProt P57059) | competitive binding | SIK | – | 100% |
| STE20/SPS1-related proline-alanine-rich protein kinase (STK39, Homo sapiens, UniProt Q9UEW8) | competitive binding panel | – | relative to: vehicle | 100% |
| Serine/threonine-protein kinase TNNI3K (TNNI3K, Homo sapiens, UniProt Q59H18) | competitive binding panel | – | relative to: vehicle | 100% |
| Mitogen-activated protein kinase 4 (MAPK4, Homo sapiens, UniProt P31152) | competitive binding panel, refers to: ERK4 | – | relative to: vehicle | 100% |
| Tyrosine-protein kinase ABL1 (ABL1, Homo sapiens, UniProt P00519, Y253F) | competitive binding panel | – | relative to: vehicle | 100% |
| Serine/threonine-protein kinase 26 (STK26, Homo sapiens, UniProt Q9P289) | competitive binding panel, refers to: MST4 | – | relative to: vehicle | 100% |
| Receptor tyrosine-protein kinase erbB-2 (ERBB2, Homo sapiens, UniProt P04626) | competitive binding panel | – | relative to: vehicle | 62% |
| Hormonally up-regulated neu tumor-associated kinase (HUNK, Homo sapiens, UniProt P57058) | competitive binding panel | – | relative to: vehicle | 82% |

A few entries again (sample 1):
| target | remaining binding |
| --- | --- |
| Receptor-type tyrosine-protein kinase FLT3 (FLT3, Homo sapiens, UniProt P36888) | 97% |
| Tyrosine-protein kinase ABL2 (ABL2, Homo sapiens, UniProt P42684) | 100% |
| Serine/threonine-protein kinase Sgk2 (SGK2, Homo sapiens, UniProt Q9HBY8) | 92% |
| cGMP-dependent protein kinase 2 (PRKG2, Homo sapiens, UniProt Q13237) | 77% |
| Mast/stem cell growth factor receptor Kit (KIT, Homo sapiens, UniProt P10721, D816H) | 100% |
